Results gathered from unrelated publications.
Lines come from different studies, so protocols differ. Numbers after ± are the reported error.
UCHL1: Ubiquitin carboxyl-terminal hydrolase isozyme L1 (UCHL1, Homo sapiens, UniProt P09936)
Chain of UniProt P09936 (whole entry, looked up): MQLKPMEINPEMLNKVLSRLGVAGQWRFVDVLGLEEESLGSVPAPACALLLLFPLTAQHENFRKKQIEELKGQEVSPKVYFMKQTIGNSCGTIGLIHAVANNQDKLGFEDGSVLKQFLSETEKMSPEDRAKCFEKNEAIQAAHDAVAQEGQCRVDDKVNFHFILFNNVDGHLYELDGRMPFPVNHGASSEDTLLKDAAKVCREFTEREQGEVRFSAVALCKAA

| SMILES | tested on | assay | conditions | how to read | measurement | result |
| --- | --- | --- | --- | --- | --- | --- |
| COc1ccc(NC(=O)c2c(Nc3ccccc3)sc(C#N)c2NC(=O)CNc2ccc(Cl)cc2)cc1 | HepG2 | flow cytometry | IC50, 24 h | – | cells in Apoptosis | 8.23 ± 0.23% |
| CC(=O)c1nn(-c2ccc(Cl)cc2)/c(=N/N=C(\C)c2ccc(NC(=O)c3ccc(Cl)cc3)cc2)s1 | HepG2 | – | 5 µM | – | toxicity | 38.1% |
| CC(C)(C)c1cc(O)ccc1O | HepG2 | extracellular flux, item: oxygen consumption rate | 1 h, representative mode | – | point of departure | 16.2 µM |
| COc1ccc(-n2nc(C(C)=O)s/c2=N\N=C(/C)c2ccc(NC(=O)c3ccccc3)cc2)cc1 | HepG2 | – | 10 µM | – | toxicity | 96.9% |
| N#CC(=Cc1cc2c(cc1[N+](=O)[O-])OCO2)C(=O)NC1CCCCC1 | UCHL1 | covalent, intact protein LC-MS | 12.5 µM | – | labelling | 10.8% |
| CN(CCOc1ccc(CC2SC(=O)NC2=O)cc1)c1ccccn1 (stereo not drawn) | HepG2 | mitochondrial membrane potential, TMRE staining | 24 h | – | representative mode point of departure | 56.2 µM |
| COc1ccc(NC(=O)c2c(Nc3ccccc3)sc(C(=O)NN=Cc3ccc(OC)c(O)c3)c2NC(C)=O)cc1 | HepG2 | flow cytometry | IC50, 24 h | – | cells in G1 | 49.5 ± 3.54% |
| CC(=O)c1nn(-c2ccccc2Cl)/c(=N/N=C(\C)c2ccc(NC(=O)c3ccccc3)cc2)s1 | HepG2 | MTT | 1.25 µM | – | cytotoxicity | 94.2% |
| CCOC(=O)/C=C\C(=O)OCC | HepG2 | high content imaging, item: cell count | 24 h, representative mode | – | point of departure | 22.4 µM |
| CCOC(=O)c1nn(-c2cccc(Cl)c2)/c(=N/N=C(\C)c2ccc(NC(=O)c3ccccc3)cc2)s1 | HepG2 | MTT | 5 µM | – | cytotoxicity | 97% |
| N#CC(=Cc1ccc(Cl)cc1Cl)C(N)=O | UCHL1 | covalent, intact protein LC-MS | 12.5 µM | – | labelling | 38.9% |
| CC(=O)Nc1ccc(/C(C)=N/N=c2\sc(C(C)=O)nn2-c2ccc(C)cc2)cc1 | HepG2 | MTT | 10 µM | – | cytotoxicity | 51.2% |
| CCc1ccc(CCOc2ccc(CC3SC(=O)NC3=O)cc2)nc1 (stereo not drawn) | HepG2 | CellTiter-Glo, item: cellular ATP | 24 h, distribution mode 1 | – | point of departure | 4.47 µM |
| CC(=O)c1nn(-c2ccc(C)cc2)/c(=N/N=C(\C)c2ccc(NC(=O)c3ccccc3)cc2)s1 | HepG2 | MTT | 0.312 µM | – | cytotoxicity | 94.9% |
| Nc1ccn([C@H]2CC[C@@H](CO)O2)c(=O)n1 | HepG2 | qPCR | 0.2 µM, 10 days, 2 | reference: untreated | mitochondrial DNA content | 94.7 ± 3.4% |

Excerpt of the above:
| SMILES | tested on | assay | conditions | how to read | measurement | result |
| --- | --- | --- | --- | --- | --- | --- |
| N#CC(=Cc1cc2c(cc1[N+](=O)[O-])OCO2)C(=O)NC1CCCCC1 | UCHL1 | covalent, intact protein LC-MS | 12.5 µM | – | labelling | 10.8% |
| CN(CCOc1ccc(CC2SC(=O)NC2=O)cc1)c1ccccn1 (stereo not drawn) | HepG2 | mitochondrial membrane potential, TMRE staining | 24 h | – | representative mode point of departure | 56.2 µM |
